Published values of several laboratories.
Each line is one published result; not all experiments were run side by side. “And” joins repeats or separate records; there may be more than shown.
Method: steady-state kinetics
B1: acsA (Pseudomonas chlororaphis, UniProt Q5CD72); chain MRDYEHVVESFDYLQSATQDLHGELTALNACVECCDRHAHGEAVALYCEAQDGHAERYRFRDLQRQAARFGNFLREQGVKPGDRVAGLMPRTVELLIAILGTWRIGAVYQPLFTAFGPKAIEQRLNCSNARWIVTDPHNRPKLDDVTDCPSIVVTGGAPQNPADHHFWSALNRQADDCAPVLLDASAPFLLMCTSGTTGPAKPLEVPLSAILAFKGYMRDAIDLRADDRFWNLADPGWAYGLYYAVTGPLACGYATLFYDGPFTVESTRHIIAKYAINNLAGSPTAYRFLIAAGAEFADAVRGRLRAVSSAGEPLNPQVVRWFAEQLGVVIHDHYGQTEIGMVLCNHHGLRHPVREGSAGYAVPGYRIVVLDKAHRELPAGQPGVLAVDRERSPLCWFDGYLGMPTQAFAGRYYLSGDIVELNDDGSISFVGRNDDLITTSGYRVGPFDVESALIEHPAVVEAAVIGKPDPQRTELIKAFVVLNTPYLPSPELAEELRLHVRQRLAAHAYPREMEFVDHLPKTPSGKLQRFILRNQEIAKQQALG
B2: enzyme (Chlamydomonas reinhardtii, UniProt A0A2K3D977); chain ASDSVLAVWRKADAVCFDVDCTITVNDSLDLLAEFMGVKEQVEILTNKAMDGSLSLEQALEERLNIINCSPDDIKRFIKAHPPASRMAPGIKELINSLQARGKAIYLISGGFRELTLPIAAYLGIPKENVFANRMNWQWDDETGMPTKLVGFDMSEPTAHNQGKPQAIARIRQRNPYNTVVMIGDGITDLEAVQTTGGADLFIGSGVVVERPAVAREADWYVYDYTDLLRTMARYSVAMVGSGAWACAAVRMIAQNTQVDDAADEFVDEVRMWVYEEDFEGKKLTEVINQTHTNPKYFPGFDLGPNVVAVPNIVDAVADADLIVFCAPHQFLHHICKQLVGKIKPGAAAISLTKGMRVRPEGPQLISQMVRRLLGIDCCVLMGANIATDIGREQLSEAVIGYDNLDAATLFQKIFQRPYFRVNLLPDPVGAEMCGTLKNIVALGAGMVDGLGLGPNSKAAIIRQGLVEMRAFSKALYPSVRDDTFMESCGVGDLVATCYGGRNRLVACEWTKAQMEGKPRTFEDLETDLLKGQKLQGVLTSNEVQEILKVRGWESQYPLFTTVNRIINGYLPPKYVVEFVAGAKYHIRRPGTDDEEIVPVRPKRPAAAGGVATAPILAA
B3: enzyme (Arabidopsis thaliana, UniProt Q9C969); chain GSFGMLSRRTLGTDMPVMAQIRSLMAELTNPMSLAQGVVHWQPPQKALEKVKELVWDPIISSYGPDEGLPELRQALLKKLREENKLTNSQVMVTAGANQAFVNLVITLCDAGDSVVMFEPYYFNSYMAFQMTGVTNIIVGPGQSDTLYPDADWLERTLSESKPTPKVVTVVNPGNPSGTYVPEPLLKRIAQICKDAGCWLIVDNTYEYFMYDGLKHCCVEGDHIVNVFSFSKTYGMMGWRLGYIAYSERLDGFATELVKIQDNIPICAAIISQRLAVYALEEGSGWITERVKSLVKNRDIVKEALEPLGKENVKGGEGAIYLWAKLPEGHRDDFKVVRWLAHRHGVVVIPGCASGSPGYLRVSFGGLQEVEMRAAAARLRKGIEELLHHGMVE
B4: enzyme (Escherichia coli, UniProt P0AG07); chain MKQYLIAPSILSADFARLGEDTAKALAAGADVVHFDVMDNHYVPNLTIGPMVLKSLRNYGITAPIDVHLMVKPVDRIVPDFAAAGASIITFHPEASEHVDRTLQLIKENGCKAGLVFNPATPLSYLDYVMDKLDVILLMSVNPGFGGQSFIPQTLDKLREVRRRIDESGFDIRLEVDGGVKVNNIGEIAAAGADMFVAGSAIFDQPDYKKVIDEMRSELAKVSHE
B5: CYP4F3 A27G/C46R/I34V/M14V/R49Q/W12G (Homo sapiens, UniProt Q08477); chain MALLLAVFLLGPVAASPWLLLLLVGGSWLLARVLAWTYTFYDNCRRLQCFPQPPKRNWFLGHLGLIHSSEEGLLYTQSLACTFGDMCCWWVGPWHAIVRIFHPTYIKPVLFAPAAIVPKDKVFYSFLKPWLGDGLLLSAGEKWSRHRRMLTPAFHFNILKPYMKIFNESVNIMHAKWQLLASEGSARLDMFEHISLMTLDSLQKCVFSFDSHCQEKPSEYIAAILELSALVTKRHQQILLYIDFLYYLTPDGQRFRRACRLVHDFTDAVIQERRRTLPSQGVDDFLQAKAKSKTLDFIDVLLLSKDEDGKKLSDEDIRAEADTFMFEGHDTTASGLSWVLYHLAKHPEYQERCRQEVQELLKDREPKEIEWDDLAQLPFLTMCIKESLRLHPPVPAVSRCCTQDIVLPDGRVIPKGIICLISVFGTHHNPAVWPDPEVYDPFRFDPKNIKERSPLAFIPFSAGPRNCIGQAFAMAEMKVVLGLTLLRFRVLPDHTEPRRKPELVLRAEGGLWLRVEPLS
B6: enzyme (Kluyveromyces lactis, UniProt Q6CSZ6); chain MSSLDINEQRALIKSAHRYISEKLEDHFSSEFLPKALVICGSGLSGISTKIADEPKPLILSYSTIPGFKVSTVPGHSGELIFGYMNGAPVVLMNGRLHSYEGHSLAETVHPIRALHLLGSINVLIVTNAAGGINASFKAGDLMCVYDHINFPGLCGFHPLRGANFDEFGPRFLATSDAYDLELRKLLFSKKKELNIERKIHEGTYSYVHGPTFESRAESRFLRLAGTDAVGMSTVPEVVTARHCGWRVLALSLITNECVVDPPASAHDENPVPIQEGKATHEEVLENSAKASKDVQELIFSVVAEI
B7: enzyme (Plasmodium falciparum, UniProt C0H484); chain MVREAHELLDGSRPIPIDKITYELSQNIILAFDNHENINNKDIQIEIEGRVGLVIDKNKNRIKLPINTDAIIENNYSDFQAGIDRESFEYLLDYFHNMTLKKRLSIRNNDNNNNNMDNNNNNMDNNNNIHIHNSGNNTNQTHSYDKNADDNKPTCNYSYDKKNACIYDFLELKTTKSIDKYYVIKNNNSRIRTTTYLNDDNKQETESMMIQSLQKDNLNIWNVYTGNNYDYFDDDEEDDDDDYNNNNNNNNGDTGTKTNIATNNTHGLTTSKSQHIYNNLVDKNDSIDYRISINIEYTKPISKLYLSKNTPVHERLKERTTFINTYLGLQVDMTKIKTKNNELYEVEIEIPSKTIFKAMSNLRNKKDSNYLHFICSNLVNNIRGICSQLNVFKKSKHMLKNTMITKLNNNSNNQNNLSLLPNHPNDDTISSKEKEKFKKYIHSVLPIVGDY
B8: SCO6712 V290N/Y229F (Streptomyces coelicolor, UniProt Q9XAL8); chain AKGITARTAPAGGEVRHLKMYAEKLADGQMGYGFEKGKASVPGPLIEVNEGDTLHIEFTNTMDVRASLHVHGLDYEISSDGTAMNKSDVEPGGTRTYTWRTHKPGRRDDGTWRPGSAGYWHYHDHVVGTEHGTGGIRNGLYGPVIVRRKGDVLPDATHTIVFNDMTINNRKPHTGPDFEATVGDRVEIVMITHGEFYHTFHMHGHRWADNRTGILTGPDDPSRVIDNKITGPADSFGFQIIAGEGVGAGAWMYHCHNQSHSDMGMVGLFLVKKPDGTIPGYEPHEHGGATAKSGESGEPTGGAAAHEHEH
B9: enzyme D423N/R186H/R7G (Gallus gallus, UniProt A0A8V0ZKC1); chain MAGPSGGARRLLLPLRLRPPPPIGPEPPCRTGSSAAAAAAGPARLKGPAELPGPGLLRTFVWLFLRGYLLHTHRLQLMSRRIYGPIWKSTFGHYQNINIGSPVVLEQLLRQEGKYPMRSDMALWKEHRDTRRLPYGPFTEEGERWYRLRQVLNKRLLKPSEAVLYADAIGEVVSDLMVRLRDERSHSPSGVLVGDVANLLYRFALEGISYILFETRIGCLKQQVPPETQHFIDSINLMFKNSIFATVLPRWSRKVLPFWDRYLDSWDTIFAFGKRLIDRKMKELEGHVEKGKEVSQGYLSYLLASGHLSLDEVYGSVAELLLAGVDTTSNTLCWALYHLSRDLGIQDTLYQELKAVVPPDRFPGAEDIPKMPMLRAVIKETLRVYPVVPTNARVFYEKDIVIGDYLFPKNTLFVLAHYAMSHNETYFPEPERFLPQRWLRGHGSPHHPFSSIPFGYGVRACVGRRIAELEMHLALARIIQAYEVRPDPRGVEVTSVSRIVLVADKPINLEFIARPGAP
B10: enzyme Y414S/Y415A (Methanosarcina mazei, UniProt Q8PVB1); chain MSEQRSVPLREHLLALKPCRHGGLIQETSETYGIPENEILDFSANFNPLGSPFDYPENGLNFEDIIKKSCGKLLEYPDNRYVEFREAAARFVGLGVTPQSIVPGNGSTEIVRLVVESVIEKGDKVLLPWPTFGEYEMQCRITGAEPVCPSQEEVNTLPDEVLEEAKILFICNPNNPTGKLRTREELKVLAERCREHKTLLYVDEAFIELSDPSQSVADLPAENNYVFVMRSLTKDFAIPGIRMGFGIAPPAMADILNTARLSWNLGAIANNTGIALLNIEGGIDSPYLKKAREMILKEGETLKAKIDRIRGFEAGEVNVNFILVDVSKFMLNSSELTARLAARGVLVRDCVSFHGLGKNYIRVAVRTEKENDRLIAAIGDVITEWGREQAKNELQHVIEKASEEGIGGRKTCESAPCHFEGQNCTFCFCPFYPCENEKTGGKWIQSSRGGRVWSCVDCHLVHKKEIAQKILDCLMHEGDTDELVKVAWKEVMEPIL
B11: enzyme Y24A (Nitrosopumilus maritimus, UniProt A9A5X4); chain MDSQKFDSIIFDCDGVLVDITQSADKTIDKTCRYVLKEFAKIDSITIDHKIIDGFKSSGGFNDEVDLVYAAILSLYTANKLNKKPSEFIYDVISNTDKTGIRSVQSYLESIYDVSEFLSKLGSLGDRHNNPVYSIFDQFFFGPELYGKLFDKQSKFSEEGMISNDKVILSVSLLETLQKEFGKKIAVVTGRGIESIRYSLKDMMDYFDTKNSAFLEDEPRELAKPNPATLIRAIQSMESKNCLYVGDSMEDYMMAKDAAQAGHSTTFCAIVGTSTNPEDRRKLFADSGVEMILESINDIPKVLNLV
Chain of UniProt Q9LRS0 (whole entry, looked up): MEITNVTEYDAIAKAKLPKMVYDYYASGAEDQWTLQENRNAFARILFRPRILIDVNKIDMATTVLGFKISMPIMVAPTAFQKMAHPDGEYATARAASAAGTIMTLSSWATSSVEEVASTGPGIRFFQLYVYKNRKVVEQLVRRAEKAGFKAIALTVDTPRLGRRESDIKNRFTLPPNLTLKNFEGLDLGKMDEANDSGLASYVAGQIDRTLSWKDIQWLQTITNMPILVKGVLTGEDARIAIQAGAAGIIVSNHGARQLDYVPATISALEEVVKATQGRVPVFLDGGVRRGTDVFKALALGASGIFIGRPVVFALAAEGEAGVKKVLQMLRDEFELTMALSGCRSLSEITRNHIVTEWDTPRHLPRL
Chain of UniProt P52961 (whole entry, looked up): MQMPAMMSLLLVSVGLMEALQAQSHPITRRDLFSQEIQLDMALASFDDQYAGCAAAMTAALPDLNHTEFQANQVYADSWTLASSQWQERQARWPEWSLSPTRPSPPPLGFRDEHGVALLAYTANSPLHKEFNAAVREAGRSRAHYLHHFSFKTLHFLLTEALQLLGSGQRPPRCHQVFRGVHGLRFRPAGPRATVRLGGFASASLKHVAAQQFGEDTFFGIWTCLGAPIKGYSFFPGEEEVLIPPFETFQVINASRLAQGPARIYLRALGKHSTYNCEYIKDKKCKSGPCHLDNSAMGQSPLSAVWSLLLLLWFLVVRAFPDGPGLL
Chain of UniProt P00327 (whole entry, looked up): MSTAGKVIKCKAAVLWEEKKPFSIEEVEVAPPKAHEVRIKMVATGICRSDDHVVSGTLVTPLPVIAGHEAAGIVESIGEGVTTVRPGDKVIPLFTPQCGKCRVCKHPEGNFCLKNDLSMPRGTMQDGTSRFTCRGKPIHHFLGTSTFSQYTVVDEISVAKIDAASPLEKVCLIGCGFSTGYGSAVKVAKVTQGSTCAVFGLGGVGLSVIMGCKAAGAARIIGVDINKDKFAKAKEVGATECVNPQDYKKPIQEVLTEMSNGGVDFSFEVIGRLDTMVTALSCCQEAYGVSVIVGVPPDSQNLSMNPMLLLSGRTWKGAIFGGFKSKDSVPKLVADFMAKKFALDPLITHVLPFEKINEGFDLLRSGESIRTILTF
Chain of UniProt P49419 (whole entry, looked up): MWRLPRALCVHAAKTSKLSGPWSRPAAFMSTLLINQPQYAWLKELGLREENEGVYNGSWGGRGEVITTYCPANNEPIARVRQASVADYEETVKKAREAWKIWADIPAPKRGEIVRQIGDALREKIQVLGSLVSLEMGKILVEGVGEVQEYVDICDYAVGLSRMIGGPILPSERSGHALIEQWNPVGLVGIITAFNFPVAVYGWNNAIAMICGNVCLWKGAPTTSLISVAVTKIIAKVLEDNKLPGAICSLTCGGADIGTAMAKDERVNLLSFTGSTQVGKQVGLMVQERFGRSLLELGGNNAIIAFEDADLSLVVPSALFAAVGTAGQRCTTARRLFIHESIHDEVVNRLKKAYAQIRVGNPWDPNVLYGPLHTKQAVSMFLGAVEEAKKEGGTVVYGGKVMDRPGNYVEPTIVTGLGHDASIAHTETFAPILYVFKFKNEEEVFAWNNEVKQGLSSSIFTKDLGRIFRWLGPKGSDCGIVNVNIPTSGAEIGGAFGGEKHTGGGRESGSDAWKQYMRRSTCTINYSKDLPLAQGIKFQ

enzyme (Salvia miltiorrhiza, UniProt G3DSC6) — Km (O=C(/C=C/c1ccc(O)cc1)O[C@H](Cc1ccc(O)c(O)c1)C(=O)O; pH 7.5, 30 °C, not purified): 196 µM
B1 (acsA) — Km (CC(C)CC(=O)O; pH 7): 9000 µM
B2 (enzyme) — Km (NC(=O)C1=CN([C@@H]2O[C@H](COP(=O)(O)OP(=O)(O)OC[C@H]3O[C@@H](n4cnc5c(N)ncnc54)[C@H](O)[C@@H]3O)[C@@H](O)[C@H]2O)C=CC1; pH 7.5, with: DHAP 5 mM): 45 µM
ALDH7A1 (Homo sapiens, UniProt P49419) — Km (N[C@@H](CCCC=O)C(=O)O; pH 8, apparent, with: NAD+ 2.5 mM): 129 µM
B3 (enzyme) — Km (O=C(O)C(=O)Cc1ccccc1): 38.5 µM and 66.2 µM
enzyme (UniProt I4BTU9) — Km (N[C@@H](CO)C(=O)O; pH 8, 30 °C): 5440 µM
B4 (enzyme) — Km (O=C(CO)[C@H](O)[C@H](O)COP(=O)(O)O; pH 8.8, 25 °C): 1600 µM
B5 — Km (CCCCC/C=C\C[C@@H](O)/C=C/C=C/C=C\[C@@H](O)CCCC(=O)O; pH 7.4): 75.5 µM
ART1 (Homo sapiens, UniProt P52961) — Km (COC(=O)[C@@H](N)CCCNC(=N)N; pH 7.5, 25 °C, HEPES 50 mM, with: saturating NAD+): 1300 µM
B6 (enzyme) — Km (OC[C@H]1O[C@@H](n2cnc3c(O)ncnc32)[C@H](O)[C@@H]1O): 188 µM
B7 (enzyme) — Km (O=P(O)(O)OP(=O)(O)OP(=O)(O)OC[C@H]1O[C@@H](n2cnc3c(O)ncnc32)[C@H](O)[C@@H]1O; with: Mn2+): 17 µM
B8 (SCO6712 V290N/Y229F) — Km (CCn1c(=NN=c2sc3cc(S(=O)(=O)O)ccc3n2CC)sc2cc(S(=O)(=O)O)ccc21; pH 7, 37 °C, NaCl 150 mM, with: O2 cosubstrate): 1100 µM
enzyme (Equus caballus, UniProt P00327) — Km (NC(=O)c1ccc[n+]([C@@H]2O[C@H](COP(=O)(O)OP(=O)(O)OC[C@H]3O[C@@H](n4cnc5c(N)ncnc54)[C@H](O)[C@@H]3O)[C@@H](O)[C@H]2O)c1; pH 7, 30 °C, cofactor varied): 105 µM
B9 (enzyme D423N/R186H/R7G) — Km (C=C1CC[C@H](O)C/C1=C/C=C1\CCC[C@]2(C)[C@@H]([C@H](C)CCCC(C)C)CC[C@@H]12; pH 7.4, 37 °C, not purified): 4.93 µM
B10 (enzyme Y414S/Y415A) — Km (Nc1ncnc2c1ncn2[C@@H]1O[C@H](COP(=O)(O)OP(=O)(O)OP(=O)(O)O)[C@@H](O)[C@H]1O; pH 8.5, 25 °C, apparent, anoxic, with: L-Thr 10 mM): 379 µM
B11 (enzyme Y24A) — Km (N[C@H](COP(=O)(O)O)Cc1c[nH]cn1; pH 7.8, 25 °C): 276 µM
GLO2 (Arabidopsis thaliana, UniProt Q9LRS0) — Km (O=C(O)CO): 362 µM
enzyme (Thermothielavioides terrestris, UniProt G2R650) — Km (Oc1ccc(/C=C/c2cc(O)cc(O)c2)cc1; pH 8, 45 °C): 81 µM
enzyme (Acinetobacter baumannii, UniProt A0A5P1UDB1) — Km (O=C(O)c1ccc(F)cc1O; pH 7.5, 37 °C, apparent): 133 µM

A few entries again:
enzyme (UniProt I4BTU9) — Km (N[C@@H](CO)C(=O)O; pH 8, 30 °C): 5440 µM
B7 (enzyme) — Km (O=P(O)(O)OP(=O)(O)OP(=O)(O)OC[C@H]1O[C@@H](n2cnc3c(O)ncnc32)[C@H](O)[C@@H]1O; with: Mn2+): 17 µM
B6 (enzyme) — Km (OC[C@H]1O[C@@H](n2cnc3c(O)ncnc32)[C@H](O)[C@@H]1O): 188 µM
